Results of several laboratories.
Lines come from different studies, so protocols differ. Several values in a cell are separate wells, animals, samples, runs or records. Numbers after ± are the reported error.
DRD3: D(3) dopamine receptor (DRD3, Homo sapiens, UniProt P35462)
Genome polyprotein NS3 helicase domain: Genome polyprotein, NS3 helicase domain (Hepatitis C virus genotype 1b, UniProt Q9WMX2)
Glutamate receptor 2: Glutamate receptor 2 (Homo sapiens, UniProt P42262)

Structure (SMILES) | tested on | test | system | conditions | how to read | endpoint | result
COc1cc2c(cc1OC)C(=O)N(CCCCN1CCN(c3ccccc3OC)CC1)C2 | DRD3 | radioligand binding | – | concentration not given, added: [3H]N-methylspiperone | – | inhibition | 100%
COc1ccc(-n2nc(OCCCN3CCCCC3)ccc2=O)cc1 | alpha1 adrenergic receptor | radioligand binding | – | 1.0 µM | – | inhibition | 16 ± 2.02%
O=C(O)C1=CC(=C(c2ccc(O)c(C(=O)O)c2)c2ccc(O)c(C(=O)O)c2)C=CC1=O | Genome polyprotein NS3 helicase domain | DNA binding, inhibitor | hepatitis C virus | 100 µM, added: Cy5-dT15 DNA | – | inhibition | 96%
CC(C)NCC(O)COc1cccc2ccccc12 (stereo not shown) | Glutamate receptor 2 | ion current, negative allosteric modulator, SyncroPatch patch clamp | HEK293 | 3 µM | – | inhibition | 2%
CN1CCN(c2cc(-c3ccncc3)c(-c3ccc4ccccc4c3)nn2)CC1 | EDNRB (Homo sapiens, UniProt P24530) | antagonist, FLIPR | – | 10 µM | – | inhibition | -1.4%
CC12CC3CC(C)(C1)CC(N)(C3)C2 | Glutamate receptor 2 | ion current, negative allosteric modulator, SyncroPatch patch clamp | HEK293 | 30 µM | – | inhibition | 23%
O=C(CN1CCO[C@H](COc2cccc(Cl)c2)C1)N1CCc2ccccc21 | DRD3 | radioligand binding | – | concentration not given, added: [3H]N-methylspiperone | – | inhibition | 18.9%
O=C(Nc1cccc2c(=O)cc(-c3nnn[nH]3)oc12)c1ccc(OCCCCc2ccccc2)cc1 | LRRC8A/LRRC8C (Homo sapiens, UniProt Q8IWT6+Q8TDW0, L134K/L136K) | ion current, whole-cell patch clamp | LRRC8-/- HCT cells | 0.1 µM, L134K/L136K mutant, +100 mV | – | inhibition | 11.1% and 16% and -4.27% and 6.74% and 2.47% and 6.73%
CC(C)c1noc2ncc(C(=O)c3ccccc3O)cc12 | Asic1 (Rattus norvegicus, UniProt P55926) | ion current, whole-cell patch-clamp | – | 10 µM, rASIC1a | – | inhibition | 6.56%
Cc1ccc(NS(=O)(=O)c2cc(C(=O)Nc3ccccc3C(=O)N3CCOCC3)ccc2Cl)c(C)c1 | Cyclin-dependent kinase 2, with cyclin A (CDK2, Homo sapiens, UniProt P24941) | – | – | – | – | Kd | > 100 µM
CC(C)NC[C@H](O)c1ccc(O)c(O)c1.O=C(O)C(O)C(O)C(=O)O | Genome polyprotein NS3 helicase domain | DNA binding, inhibitor | hepatitis C virus | 100 µM, added: Cy5-dT15 DNA | – | inhibition | 3%
C[C@H]1c2nn(C)cc2[C@H]2C[C@@H]1N(Cc1ccccc1)C[C@]2(C)O | OPRK1 (Cavia porcellus, UniProt P41144) | binding | guinea pig brain | 1 µM, added: [3H]U-69593 | – | inhibition | 5%
Cc1cc(-c2ccnc3[nH]cc(F)c23)cc(F)c1[C@@]1(O)[C@H](C)CN(C(=O)CN)C[C@@H]1C | CDK11 and CDK8 | ATP probe binding, KiNativ, measured: Lys2 site | HEK293T cell lysate | 1 µM | – | inhibition | 23.1%
Oc1cc2c(cc1O)C(CCc1ccccc1)NCC2 (stereo not shown) | tyrosinase | enzyme activity, inhibitor | – | 100 µM, added: levodopa | – | inhibition | 23.5 ± 0.47%
Cc1ccc(OC[C@@H]2CN(CCN3CCc4ccccc43)CCO2)cn1 | DRD3 | radioligand binding | – | concentration not given, added: [3H]N-methylspiperone | – | inhibition | 34.5%
[2H]c1cc(C)c(NC(=O)c2cnc(Nc3cc(N4CCCCC4)nc(C)n3)s2)c(Cl)c1 | FGFR2 (Homo sapiens, UniProt P21802) | – | – | 0.01 µM | – | inhibition | < 30%
O=C(CN1CCO[C@H](COc2cccnc2)C1)N1CCc2ccccc21 | DRD3 | radioligand binding | – | concentration not given, added: [3H]N-methylspiperone | – | inhibition | 11.7%
Cn1cc(-c2ccc(-c3cncc(Cl)c3N3CCC4(CCNC4=O)CC3)cc2)cn1 | COLO 205 | microarray, measured: OXTR | – | concentration not given, 6 h, gene set OTR | baseline: untreated cells | fold change in expression | -1.43
CCCn1c(=O)c2[nH]c(-c3ccc(S(=O)(=O)O)cc3)nc2n(CCC)c1=O | Genome polyprotein NS3 helicase domain | DNA binding, inhibitor | hepatitis C virus | 100 µM, added: Cy5-dT15 DNA | – | inhibition | 0%
CNC(=O)c1cc2c(Oc3ccc(NC(=O)C4(C(=O)Nc5ccc(F)cc5)CC4)cc3)ccnc2cc1OC | Vascular endothelial growth factor receptor 2 (Mus musculus, UniProt P35918) | VEGFR2 phosphorylation | mouse, Hs746T xenograft, lung | 100 mg/kg single dose, 4 h, added: human VEGF | – | inhibition | 100%
O=C(NO)c1ccc(CN2CCCCc3ccccc32)c(F)c1 | CHRM3 (Homo sapiens, UniProt P20309) | radioligand binding, radioligand displacement | – | 10 µM, mean of replicates | – | inhibition | -28.7%
CCCCCCN(CCCCCC)C(=O)Cc1c(-c2ccc(F)cc2)[nH]c2ccccc12 | Genome polyprotein NS3 helicase domain | DNA binding, inhibitor | hepatitis C virus | 100 µM, added: Cy5-dT15 DNA | – | inhibition | 1%
CC[C@@H]1[C@H](F)C(=O)N[C@@H]1COc1nccc2cc(C(N)=O)c(OC)cc12 | CAMK2D (Homo sapiens, UniProt Q13557) | ATP-site probe binding, ActivX profiling | THP-1 cell lysate | 0.04 mM, Lys1 site | – | inhibition | 9.6%
CCCN1C[C@H](CSC)C[C@@H]2c3cccc4[nH]cc(c34)C[C@H]21 | Glutamate receptor 2 | ion current, negative allosteric modulator, SyncroPatch patch clamp | HEK293 | 3 µM | – | inhibition | 11%
Cc1ncccc1OC[C@H]1CN(CCN2CCc3ccccc32)CCO1 | DRD3 | radioligand binding | – | concentration not given, added: [3H]N-methylspiperone | – | inhibition | 50%

Structure (SMILES) | tested on | test | system | conditions | how to read | endpoint | result
COc1cc2ncnc(Nc3ccc(Oc4ccccc4)cc3C)c2cc1OC | Protein kinase C beta type, isoform beta-II (PRKCB, Homo sapiens, UniProt P05771) | kinase activity, inhibitor | – | 1 µM | – | inhibition | 6%
COc1cccc(C2NCCc3cc(O)c(O)cc32)c1 (stereo not shown) | tyrosinase | enzyme activity, inhibitor | – | 100 µM, added: levodopa | – | inhibition | 27.9 ± 1.19%
O=C(O)CNC(=O)C(CS)Cc1ccccc1 (racemic) | Genome polyprotein NS3 helicase domain | DNA binding, inhibitor | hepatitis C virus | 100 µM, added: Cy5-dT15 DNA | – | inhibition | 0%
CCS(=O)(=O)c1nc(S(=O)(=O)c2ccccc2Cl)c(N2CCN(C)C(=O)[C@H]2C)s1 | DRD3 | – | – | 10 µM | – | inhibition | 1.18%
O=C(NO)c1cc(F)cc(OS(=O)(=O)Oc2ccccc2)c1 | Histone deacetylase 3, with NCoR2 DAD (HDAC3, Homo sapiens, UniProt O15379) | enzyme activity, fluorogenic | – | 10 µM | – | inhibition | 17%
CCCCCCCCC1NCCc2cc(O)c(O)cc21 (stereo not shown) | tyrosinase | enzyme activity, inhibitor | – | 100 µM, added: levodopa | – | inhibition | 8.58 ± 2.53%
O=C(O)CCc1ccc(NCc2cccc(Oc3ccccc3)c2)cc1 | Genome polyprotein NS3 helicase domain | DNA binding, inhibitor | hepatitis C virus | 100 µM, added: Cy5-dT15 DNA | – | inhibition | 0%
O=C(O)CN(CCN(CC(=O)O)CC(=O)O)CC(=O)O | Hydroxyacylglutathione hydrolase, mitochondrial (Homo sapiens, UniProt Q16775) | glyoxylase II activity | – | 500 µM | – | inhibition | 41%
CN(C)C1CCN(CC#Cc2nn(C3CCCC3)c3nc(NCc4ccccc4)ncc23)C1 (stereo not shown) | TAOK2 (Homo sapiens, UniProt Q9UL54) | enzyme activity, inhibitor, Z'-LYTE | – | 100 nM | – | inhibition | -3%
O=C1C(SCCO)=C(SCCO)C(=O)c2ccccc21 | F13A1 (Homo sapiens, UniProt P00488) | crosslinking activity | – | 15 µM, without DTT | – | inhibition | inhibited
CN(C(=O)n1cnc(-c2ccc[n+]([O-])c2)c1)C1CCCCC1 | choline acetyltransferase | enzyme activity | – | concentration not given | – | inhibition | 0.92%
CC/C(=N\NC(=O)NCc1cccc(O)c1)c1ccc(O)c(C)c1O | Protein kinase C beta type, isoform beta-I (PRKCB, Homo sapiens, UniProt P05771) | kinase activity | – | 0.1 µM | – | inhibition | 7.9%
COc1ccc(NC(=O)CN2CCOCC2)c([N+](=O)[O-])c1 | CDK2 (Homo sapiens, UniProt P24941) | binding | – | – | – | Kd | > 100 µM
O=C1NC(=O)C(c2ccccc2)(c2ccccc2)N1 | Voltage-gated potassium channel, KQT; KCNQ2(Kv7.2)/KCNQ3(Kv7.3) (KCNQ3/KCNQ2, Homo sapiens, UniProt O43525+O43526) | ion current, antagonist, SyncroPatch patch clamp | HEK293 | 3 µM | – | inhibition | 0%
CS(=O)(=O)CCNCc1ccc(-c2ccc3ncnc(Nc4ccc(OCc5cccc(F)c5)c(Cl)c4)c3c2)o1 | Insulin-like receptor (daf-2, Caenorhabditis elegans, UniProt Q968Y9) | inhibitor, radiometric phosphocellulose | – | 10 µM, added: ATP 0.2 mM | – | inhibition | ~45%
Nc1c(Br)cc(Br)cc1CN[C@H]1CC[C@H](O)CC1 | Glutamate receptor 2 | ion current, negative allosteric modulator, SyncroPatch patch clamp | HEK293 | 3 µM | – | inhibition | 8%
CNc1cccc2cc(C(=O)Nc3ccc(C(=O)O)cc3)c(=O)[nH]c12 | Protein kinase C beta type, beta-II isoform (PRKCB, Homo sapiens, UniProt P05771) | – | – | 10 µM | – | inhibition | 3.9%
Cc1ccc(/C(=C\CN2CCCC2)c2ccccn2)cc1.Cl | Genome polyprotein NS3 helicase domain | DNA binding, inhibitor | hepatitis C virus | 100 µM, added: Cy5-dT15 DNA | – | inhibition | 1%
Cc1nc2sccn2c(=O)c1CCN1CCC(=C(c2ccc(F)cc2)c2ccc(F)cc2)CC1 | Diacylglycerol kinase alpha (Rattus norvegicus, UniProt P51556) | kinase activity, inhibitor | HEK293T cell lysate | 50 µM | baseline: DMSO | inhibition | ~63%
Cn1cc(-n2cnc3c(NCc4nc5cc(Cl)c(Cl)cc5[nH]4)nc(N4CCOCC4)nc32)cn1 | Cyclin-dependent kinase 12, with cyclin K (CDK12, Homo sapiens, UniProt Q9NYV4) | kinase activity, inhibitor, ADP-Glo | – | 0.0009 µM | – | inhibition | 18.4%
COC(=O)C(N)Cc1ccc(Cl)cc1.Cl (racemic) | Genome polyprotein NS3 helicase domain | DNA binding, inhibitor | hepatitis C virus | 100 µM, added: Cy5-dT15 DNA | – | inhibition | 1%
COc1cc(Cl)c(C(=O)N[C@@H](CN[C@H]2CC[C@@H](N)CC2)Cc2ccc(C#N)cc2)cc1-c1ccc(CN[C@H](C)c2ccc(C)cc2)o1 | ADORA2B (Homo sapiens, UniProt P29275) | agonist response, antagonist | human cells | 10 µM, A2B antagonist | – | inhibition | -4%
Cn1c(=O)c2[nH]cnc2n(C)c1=O | Glutamate receptor 2 | ion current, negative allosteric modulator, SyncroPatch patch clamp | HEK293 | 3 µM | – | inhibition | -1%
O=C1CN(C[C@@H](CO)NCc2c[nH]c3c(O)nc(O)nc23)S(=O)(=O)N1 | Hypoxanthine-guanine-xanthine phosphoribosyltransferase (Plasmodium falciparum, UniProt P20035) | enzyme activity, inhibitor, coupled IMPDH | – | up to 100 µM | – | inhibition | inactive

A few entries again:
Structure (SMILES) | tested on | test | system | conditions | how to read | endpoint | result
O=C(O)CN(CCN(CC(=O)O)CC(=O)O)CC(=O)O | Hydroxyacylglutathione hydrolase, mitochondrial (Homo sapiens, UniProt Q16775) | glyoxylase II activity | – | 500 µM | – | inhibition | 41%
CN(C)C1CCN(CC#Cc2nn(C3CCCC3)c3nc(NCc4ccccc4)ncc23)C1 (stereo not shown) | TAOK2 (Homo sapiens, UniProt Q9UL54) | enzyme activity, inhibitor, Z'-LYTE | – | 100 nM | – | inhibition | -3%
O=C1C(SCCO)=C(SCCO)C(=O)c2ccccc21 | F13A1 (Homo sapiens, UniProt P00488) | crosslinking activity | – | 15 µM, without DTT | – | inhibition | inhibited
CN(C(=O)n1cnc(-c2ccc[n+]([O-])c2)c1)C1CCCCC1 | choline acetyltransferase | enzyme activity | – | concentration not given | – | inhibition | 0.92%
CC/C(=N\NC(=O)NCc1cccc(O)c1)c1ccc(O)c(C)c1O | Protein kinase C beta type, isoform beta-I (PRKCB, Homo sapiens, UniProt P05771) | kinase activity | – | 0.1 µM | – | inhibition | 7.9%
